Published values from different studies.
A part holds a random share of what one study measured. Positions count from the first letter of the parent shown.

Block 1
Target: RING finger protein unkempt homolog, zinc fingers 1-6, GST-SBP tag (UNK, Homo sapiens, UniProt Q9C0B0, residues 30-357)
Chain of UniProt Q9C0B0 (30-357, looked up): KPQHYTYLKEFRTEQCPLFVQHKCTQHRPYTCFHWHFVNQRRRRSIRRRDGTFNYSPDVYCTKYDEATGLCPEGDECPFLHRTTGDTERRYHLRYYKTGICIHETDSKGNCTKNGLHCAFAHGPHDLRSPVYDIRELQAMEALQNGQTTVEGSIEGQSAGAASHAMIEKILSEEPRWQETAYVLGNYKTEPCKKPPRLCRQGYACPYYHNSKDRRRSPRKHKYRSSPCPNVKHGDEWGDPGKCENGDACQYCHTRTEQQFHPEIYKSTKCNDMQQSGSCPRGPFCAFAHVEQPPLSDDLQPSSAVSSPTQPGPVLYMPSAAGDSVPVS
Technique: RNA Bind-n-Seq
Molecule type: RNA
Matrix: in vitro
Concentration: not given
Notes: RNA with constant flanks, human-mouse chimeric sites, ends assumed
Reference: input RNA pool
Reading: higher = stronger binding
| Strand | bound/input enrichment [ratio] |
| --- | --- |
| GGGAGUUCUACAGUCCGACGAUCUUAUCCAAGACUCAACGAAAGACUCCAACGGUUAUUCAUAAACAUUACCAAAUACAUCGGAUUCGACAUUUUUAUAUGAGAAAAGUCAAAUUUACUCAACAGAAUUACCAUGACAGACUGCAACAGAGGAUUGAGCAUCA | 0.188 |
| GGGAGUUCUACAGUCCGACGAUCCUGAGGAUACCACUGAAGAGACCUUAAAAGAAUCAUUUGAGGGCUCUGUUCGUGCAAAGGAUAGUUAUGAUCGGGAAACUGGUUCUUUCCAAAGGGUUGGUUUUGUAGACUUUAAUAGUGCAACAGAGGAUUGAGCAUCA | 0.992 |
| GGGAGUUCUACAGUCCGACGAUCGCAGGAUCUUCUAAGUACCAGUGGGACAUUAUGAAAUCCCUUGGGCUGUCUGAUGAAGAGAUAGUAAAGUUUUCUGAAGCAGAGCACUGGCUUGAUUAUUUCCCACCACUGGCCGUUCAGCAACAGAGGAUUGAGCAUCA | 0.201 |
| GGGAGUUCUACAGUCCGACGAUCCGCAGAAGGUUAAAGGGUGAGAGUGGGGUGGAAGACUGUGUCAUGGCUCUGGAGACACUGUUCAGUGUCCUGCUUUCUCUGUGCAGACUUAUGGCUCCUUACACGCCCUUUCUGACUGAGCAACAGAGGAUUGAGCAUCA | 0.0699 |
| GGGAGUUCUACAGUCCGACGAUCGUAGCUGGGACUACAGAAAUGCUGGUAAUUUCAGUCAGUGAGUCGUGACUUCUGAUGUCCCAGCAAAUGUUGGCAUUGUUGACUGCUGAGAAGAUACACUCGCAAGGCCACGUCUAAGGUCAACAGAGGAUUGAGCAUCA | 0.0535 |
| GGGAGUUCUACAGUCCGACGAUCUCAGUCUUUUUGUACAGCUUUGUAAAUUCUUAACAUUUUUAUAUUGCCAUGUUUAUUUUGUUUGGGUGCUUUAUUAAAUUAAGUACAUAGCUAAGGUAAUGAACAUCUUUUUCAGUAAUUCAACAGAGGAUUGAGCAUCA | 1.31 |
| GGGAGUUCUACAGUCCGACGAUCGCUCCUCCCCGCUCUGCCCCUGCCUGCCACUGGGCUGGGACCAGAAUCCAGCUUUCUUUUAAAACUCUCAGUGUAACUGUAUCCCGUGACAUUUCAUUUUUUUUAAAAGAAAAAAACUUUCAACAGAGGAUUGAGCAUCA | 0.297 |
| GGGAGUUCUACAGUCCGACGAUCGGCCUGGGACCGUCCUGGGCUAGUACAAUAGCGGCAGGUGGAGGCUCGAGAGGAAAGUUUGUUAGUGGAGGCAGUGGUAGAGGCCGUAUGUACGCUCCCUUUACUCGAUAGAUGUGUUCUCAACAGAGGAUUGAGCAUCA | 0.341 |

Block 2
Target: Hepatocyte nuclear factor 3-beta, forkhead domain (FOXA2, Homo sapiens, UniProt Q9Y261, residues 142-269)
Technique: protein-binding microarray
Molecule type: double-stranded DNA, one strand shown
Matrix: in vitro
Concentration: not given
Notes: k-mer, scored over probes, only values ≥0.25
Reading: higher = stronger binding
Residues (chain): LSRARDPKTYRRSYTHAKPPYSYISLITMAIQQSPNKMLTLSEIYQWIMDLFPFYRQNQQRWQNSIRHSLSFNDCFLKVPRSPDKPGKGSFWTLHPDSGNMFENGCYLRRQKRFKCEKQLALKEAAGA
| Strand | E-score |
| --- | --- |
| ATGATAAC | 0.308 |
| TCCATCAA | 0.29 |
| ACGTTTAC | 0.28 |
| GTTGTCTA | 0.3 |
| ACAACCAG | 0.264 |
| AGATGTAT | 0.311 |
| ACAATTGT | 0.282 |
| AATAAACG | 0.277 |
| CACGTATA | 0.261 |
| AGTGTGTG | 0.256 |
| TATTTCAA | 0.353 |
| TATTGGCA | 0.25 |
| ATATAACA | 0.406 |
| ATCGTACA | 0.276 |
| AACGTAAC | 0.285 |
| TAGATCAA | 0.26 |
| TGTAAGAA | 0.256 |

Block 3
Target: ABI1, truncated, D143A, DHFR fusion (Arabidopsis thaliana)
Technique: DHFR PCA, deep sequencing
Matrix: yeast
Notes: methotrexate growth selection, single substitutions
Added: (+)-ABA 200 µM
Reference: wild-type fitted maximum
Reading: higher = stronger binding
Parent: PYL1, truncated, DHFR fusion (Arabidopsis thaliana); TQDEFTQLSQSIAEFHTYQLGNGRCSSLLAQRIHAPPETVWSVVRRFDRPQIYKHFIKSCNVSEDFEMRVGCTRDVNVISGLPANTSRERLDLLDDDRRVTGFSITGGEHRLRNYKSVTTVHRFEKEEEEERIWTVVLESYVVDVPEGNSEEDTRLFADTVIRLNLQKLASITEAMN; partner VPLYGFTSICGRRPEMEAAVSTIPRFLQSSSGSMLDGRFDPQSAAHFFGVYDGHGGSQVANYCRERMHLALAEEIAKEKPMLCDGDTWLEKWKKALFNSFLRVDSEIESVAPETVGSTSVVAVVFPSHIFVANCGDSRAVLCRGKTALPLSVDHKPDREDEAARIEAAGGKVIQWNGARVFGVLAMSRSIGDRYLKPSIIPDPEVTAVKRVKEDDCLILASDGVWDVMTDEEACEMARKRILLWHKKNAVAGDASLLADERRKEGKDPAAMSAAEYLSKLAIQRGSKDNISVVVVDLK
| Variant | relative binding score [%] |
| --- | --- |
| E129T | 98.7 |
| D153S | 49.6 |
| G23Y | 83.2 |
| E14F | 74.7 |
| S26M | 90.6 |
| L166C | 7.02 |
| G102S | 108 |
| S27H | 93.8 |
| A13G | 94.2 |

Block 4
Target: RNA binding protein fox-1 homolog 2, RRM domain, GST-SBP tag (RBFOX2, Homo sapiens, UniProt O43251-10, residues 100-194)
Technique: RNA Bind-n-Seq
Molecule type: RNA
Matrix: in vitro
Concentration: 365 nM
Notes: natural RNA segment, single round, ends assumed
Reference: no-protein control
Reading: higher = stronger binding
Target sequence (chain): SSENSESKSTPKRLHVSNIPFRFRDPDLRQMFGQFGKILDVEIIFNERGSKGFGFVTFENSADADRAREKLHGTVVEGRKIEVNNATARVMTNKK
| Strand | RBNS enrichment (R) |
| --- | --- |
| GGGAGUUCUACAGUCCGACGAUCCUAAAGGGAAUUGUAAUUUGGUUAUAAUUCAGGAUUUGGAAAUAAAUUUAUUAUUUGUAAAACAUGACUGCAUGUCUGACUUUUUCCUUCACCCUCUUAAAUCAUGUAAUUGGAAUUCUCGGGUGCCAA | 7.42 |
| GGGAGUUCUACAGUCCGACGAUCUGCAUCACCAUUUCUUUGGCCCCCUUACUCUGUUGUCCUUUCCCUUUUCUUUCAGUUUUUUUAAUCGCAUGUCUAGUAUAUUAAGUCUCCAUAGCCCUCCUGAUGCAGUAUGGAAUUCUCGGGUGCCAA | 58.3 |
| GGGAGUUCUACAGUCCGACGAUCUAGGAUGCAUAGCUGCCCCUAGGGUACGUAGCUGAACACUGACAAUGGCGUUCUUCUGAAAGAGCCACGUUUGGGUUUUAUUUCUUUGUCACAUGAUUUCUUUUCUGGAUUGGAAUUCUCGGGUGCCAA | 0.319 |
| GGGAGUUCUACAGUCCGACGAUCUAACAUAAAAACUCAUUUUUGUAUUUCUUGGAUUACUUUGACUAUUCUAAUGUUUAAUUACAUAUGGUAACCCUAAGGCCUGGGGAGAAAAGCUUUUAAAUCUUGCCUUCUGGAAUUCUCGGGUGCCAA | 0.341 |
| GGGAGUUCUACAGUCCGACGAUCACAGCGACUGGGAAAUAAUGGUCCCUACUUGCAUAAUUUGACUUCAGGCUUUUGGAGAAAAAGGACCCAAGUGACACUGAUGUUUACAAAGUACCUAUAAAACCCUGUACUGGAAUUCUCGGGUGCCAA | 0.356 |
| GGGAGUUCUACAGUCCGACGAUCCUGUGUAGCCCUUUGGAUUCAGCCUGUGGAUGUCCACUCAUCCCUGCAGGCUCCUACUGCCCAUGCUGUGGCUGGAUUAAACAGCACGGGGUCUGAUAGAAAACGGGACUUGGAAUUCUCGGGUGCCAA | 0.423 |
| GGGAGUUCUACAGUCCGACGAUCGGUUUUGCUUUUAGUCUCCCCUUCCUUCUGCCUUGGGGGCGGUACUCUGUGGAGCUGCUUAGGCCUGGAAAGGUACAGUAUGUAGAAGAGGACUGUGAGACGUGAGUUAGUGGAAUUCUCGGGUGCCAA | 0.362 |
| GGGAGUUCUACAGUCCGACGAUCUGGACAUGUCUGAGCAGAGAAACCGUGGAAUAGAAUAUGGUGCGUGGGCUGCUAACAGCAAGAGGGAGCACUUGUCUUCAUCACAAGCAAGAUGAUGAGCACAGAGUGAGUGGAAUUCUCGGGUGCCAA | 1.69 |
| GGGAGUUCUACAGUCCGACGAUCACUUGGUAGAUACUGCUCCAAUAUCCUGUUGCUAGCCCCCACCUCCUUCUGGAACAGUGUGAGACAAUUAAACUUCAUUCCCUGUGGGUUAGCACUUAAUAUGUAGAAGCUGGAAUUCUCGGGUGCCAA | 0.415 |
| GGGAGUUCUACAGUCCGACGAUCCAGAGACAGUAUUGUAUAACCAAAGUAUUUGAUGCCAAAAUUUGACGUUAAAAUAAUGAUUUGAUUUCCUGCCCUGGUUUGAAGGUCCAUUUUAUUCCUUUGCACUCAUUUGGAAUUCUCGGGUGCCAA | 0.371 |
| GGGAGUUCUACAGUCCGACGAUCUAAGCGAAUAUAUUAUAAUAUGUAUAGAGCGCCUUUUGUGUAAGUCACUGGUCAGAAUCCUCACUGAGCUCCCAGUCCAGAGAGAAGCCAGACAAUUAAAACAGUAAUGAUGGAAUUCUCGGGUGCCAA | 0.403 |
| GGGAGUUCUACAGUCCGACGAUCCGAGUGUGGACAACCACACCUGGCUCUGGCGUCUGGCGGUCACUUGACGCUCAUCUGCGUCUCCGUCUGCUAGGUGGUCGGUGAUAAAUUCAAAUGUAUCAGAUCUCUGUUGGAAUUCUCGGGUGCCAA | 0.168 |

Block 5
Target: Ras GTPase-activating protein-binding protein 1, full length (G3BP1, Homo sapiens, UniProt Q13283)
Chain of UniProt Q13283 (whole entry, looked up): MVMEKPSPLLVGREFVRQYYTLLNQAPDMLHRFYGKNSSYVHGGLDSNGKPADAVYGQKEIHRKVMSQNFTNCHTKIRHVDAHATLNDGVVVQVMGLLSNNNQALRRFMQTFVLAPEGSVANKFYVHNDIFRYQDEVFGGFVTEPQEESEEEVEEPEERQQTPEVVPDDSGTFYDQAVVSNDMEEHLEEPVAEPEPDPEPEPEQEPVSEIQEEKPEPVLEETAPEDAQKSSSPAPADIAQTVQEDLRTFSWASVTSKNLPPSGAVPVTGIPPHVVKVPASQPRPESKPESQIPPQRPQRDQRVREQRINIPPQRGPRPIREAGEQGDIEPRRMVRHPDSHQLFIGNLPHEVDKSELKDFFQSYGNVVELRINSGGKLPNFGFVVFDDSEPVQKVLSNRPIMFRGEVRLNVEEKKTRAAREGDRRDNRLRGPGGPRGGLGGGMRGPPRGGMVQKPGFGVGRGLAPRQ
Technique: RNA Bind-n-Seq
Molecule type: RNA
Matrix: in vitro
Concentration: 200 nM
Notes: whole 134-nt RNA, ends assumed
Added: 150 mM KCl
Reference: input library
Reading: higher = stronger binding
| Strand | log2 enrichment |
| --- | --- |
| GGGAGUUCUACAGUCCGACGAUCUGGCCCUGGUGGCAUGCGGGGAGGAAGAGGUGGCCUCAUGGAUCGUAGUGGUCCCGGUGGAAUGUUCAGAGGUGGCCGUGGUGGAGACAGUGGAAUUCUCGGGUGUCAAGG | 0.531 |
| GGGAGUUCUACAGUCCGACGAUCUGGCCCUGGUGGCAUGCGGGGAGCAAGAGGUGGCCUCAUGGAUCGUGGUGGUCCCGGUGGAAUGUUCAGAGGUGGCCGUGGUGGAGACAGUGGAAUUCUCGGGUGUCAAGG | 0.172 |
| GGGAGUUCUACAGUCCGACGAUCCUCAAGUCCUGUGCUACACAUCGUAUGUACCGAAUCGGGUUGGUUGGGUUGGGAAAGUAUUAUGUUACGCCGUUCGGAUCUGCACUUCCAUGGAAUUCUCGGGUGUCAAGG | 0.92 |
| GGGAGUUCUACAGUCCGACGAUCCACAGACAACACGCACCCACACAGACACAGGGGGAAGGGGUUGGGAUGGGGACAGGGUGCACAGCAGGGCGGGGUAGGACCCCAGCCCCUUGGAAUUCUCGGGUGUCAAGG | 1.79 |
| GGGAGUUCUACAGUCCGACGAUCAAGUCCUGUGCUACACAUCGUAUGUACCGAAUCGGAAAAGGGAAAAGGGAAAAGGGAAAGUAUUAUGUUACGCCGUUCGGAUCUGCACUUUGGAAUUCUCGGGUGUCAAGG | -0.837 |
| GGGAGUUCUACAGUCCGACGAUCAGUCCUGUGCUACACAUCGUAUGUACCGAAUCAAAUUUUUAAACCCAAACCCCCAAAAAAGUAUUAUGUUACGCCGUUCGGAUCUGCACUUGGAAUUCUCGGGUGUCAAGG | -0.484 |
| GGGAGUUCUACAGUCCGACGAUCAAGUCCUGUGCUACACAUCGUAUGUACCGAAUCGGGUUUGGGUUUUUUUGGGUGGGAAAGUAUUAUGUUACGCCGUUCGGAUCUGCACUUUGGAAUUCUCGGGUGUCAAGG | 0.258 |
| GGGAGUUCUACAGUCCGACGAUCAAGUCCUGUGCUACACAUCGUAUGUACCGAAUCGGUUUUGGGGUUUUGGGUUUUGGAAAGUAUUAUGUUACGCCGUUCGGAUCUGCACUUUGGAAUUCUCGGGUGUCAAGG | -0.943 |
| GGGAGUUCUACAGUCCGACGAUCAAGUCCUGUGCUACACAUCGUAUGUACCGAAUCGGGUUUGGGGUUUGGGGUUUGGGGAAAGUAUUAUGUUACGCCGUUCGGAUCUGCACUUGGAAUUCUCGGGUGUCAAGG | 0.224 |

For quick reference, copied from above (block 3):
| Variant | relative binding score [%] |
| --- | --- |
| E129T | 98.7 |
| G23Y | 83.2 |
| S27H | 93.8 |
| S26M | 90.6 |
| E14F | 74.7 |
